{"data": "Measured values gathered from unrelated publications", "Nuclear receptor subfamily 2 group C member 2 ligand-binding domain": "Nuclear receptor subfamily 2 group C member 2, ligand-binding domain (Homo sapiens, UniProt P49116)", "note": "Compare with care: the assays were run in different laboratories. Several values in a cell are separate wells, animals, samples, runs or records. Numbers after ± are the reported error."}
{"SMILES": "NCCS(=O)(=O)O", "target or system": "Sodium- and chloride-dependent taurine transporter (SLC6A6, Homo sapiens, UniProt P31641, Y138A)", "assay": "binding, microscale thermophoresis", "conditions": "977 nM, room temperature, together with: 50 nM labelled protein", "scale": "higher = more binding", "endpoint": "normalised MST signal", "value": -0.00223}
{"SMILES": "CC[C@@H]1[C@H](F)C(=O)N[C@@H]1COc1nccc2cc(C(N)=O)c(OC)cc12", "target or system": "Serine/threonine-protein kinase MARK2 (MARK2, Homo sapiens, UniProt Q7KZI7)", "assay": "ATP-site probe binding, ActivX profiling", "test system": "THP-1 cell lysate", "conditions": "0.04 mM, Lys2 site", "endpoint": "inhibition", "value": "0.7%"}
{"SMILES": "CC(Nc1nc(N2CCCC2)nc2ccccc12)c1ccccc1 (centres unmarked)", "target or system": "Exportin-1 (XPO1, Homo sapiens, UniProt O14980)", "assay": "nuclear export, high content imaging", "test system": "HeLa Kyoto reporter", "conditions": "1 µM, 2 h", "endpoint": "cells with nuclear reporter", "value": "2.37% and 4.89% and 4.45%"}
{"SMILES": "COCCC(=O)N1CCC(Oc2ccccc2)C1 (centres unmarked)", "target or system": "DDB1- and CUL4-associated factor 1 (DCAF1, Homo sapiens, UniProt Q9Y4B6)", "assay": "binding, affinity selection mass spectrometry", "scale": "baseline: other proteins in batch", "endpoint": "fold enrichment", "value": 0.774}
{"SMILES": "Cc1ccnc(OC[C@H]2CN(CC(=O)N3CCc4ccccc43)CCO2)c1", "target or system": "5-hydroxytryptamine receptor 4 (HTR4, Homo sapiens, UniProt Q13639)", "assay": "radioligand binding", "conditions": "concentration not given", "endpoint": "inhibition", "value": "-0.2%"}
{"SMILES": "Nc1nc2c(ncn2[C@@H]2O[C@H](COP(=O)(O)O)[C@@H](O)[C@H]2O)c(=O)[nH]1", "target or system": "GUK1 (Homo sapiens, UniProt Q16774, R148A)", "assay": "enzyme activity, NADH-coupled", "conditions": "31.25 µM", "endpoint": "reaction rate", "value": "2.44 s⁻¹ and 0.475 s⁻¹ and 1.89 s⁻¹"}
{"SMILES": "CCOCC(O)COc1ccc(NC(=O)CC[S+](C)C)cc1 (centres unmarked)", "target or system": "Nuclear receptor subfamily 2 group C member 2 ligand-binding domain", "assay": "SPR imaging", "conditions": "600 nM", "endpoint": "koff", "value": "3.75e-07 s⁻¹"}
{"SMILES": "CCCCCCCC(=O)c1cc(OC)c(OC)c(OC)c1CC(=O)OCC", "target or system": "COS-7", "conditions": "10 µM, 24 h, 0.1% DMSO, unit not given", "scale": "baseline: vehicle control", "endpoint": "confluence", "value": "0.93 ± 0.04"}
{"SMILES": "O=C(COP(=O)(O)O)[C@@H](O)[C@H](O)[C@H](O)COP(=O)(O)O", "target or system": "Pyridoxal-dependent decarboxylase domain-containing protein 1 (PDXDC1, Homo sapiens, UniProt Q6P996)", "assay": "thermal proteome profiling, refers to: PDXDC1", "test system": "HepG2 cell lysate", "conditions": "concentration not given, 57 over 37 °C", "scale": "baseline: compound over control", "endpoint": "thermal stability ratio", "value": "0.516 and 0.6 and 0.625"}
{"SMILES": "COc1cccc2c1C(=O)c1c(O)c3c(c(O)c1C2=O)C[C@@](O)(C(=O)CO)C[C@@H]3O[C@H]1C[C@H](N)[C@H](O)[C@H](C)O1", "target or system": "COS-7", "conditions": "100 µM, 24 h, 0.1% DMSO, unit not given", "scale": "baseline: control", "endpoint": "necrosis", "value": "9.15 ± 0.83"}
{"SMILES": "O=C1Nc2c(ccc(Cl)c2Cl)C1=NO", "target or system": "KCNN4/CALM1 (Homo sapiens, UniProt O15554+P0DP23)", "assay": "ion current, activator, whole-cell patch clamp", "test system": "HEK293", "conditions": "250 nM", "scale": "baseline: baseline", "endpoint": "current increase", "value": "36 fold"}
{"SMILES": "Cn1cc(-c2cnc3ccc(NC(=O)Nc4ccc(F)c(Br)c4)cc3n2)cn1", "target or system": "Inhibitor of nuclear factor kappa-B kinase subunit beta (IKBKB, Homo sapiens, UniProt O14920)", "assay": "kinase binding, KiNativ profiling, refers to: Lys1 peptide", "test system": "PANC-1 lysate", "conditions": "10 µM", "endpoint": "inhibition", "value": "5.7%"}
{"SMILES": "Nc1ncnc2c1ncn2[C@@H]1O[C@H](COP(=O)(O)CP(=O)(O)OP(=O)(O)O)[C@@H](O)[C@H]1O", "target or system": "P2X purinoceptor 1 (P2RX1, Homo sapiens, UniProt P51575, K140A)", "assay": "saturation binding", "test system": "HEK293", "conditions": "79 nM", "endpoint": "specific binding", "value": "7490 CCPM and 2660 CCPM and 3690 CCPM"}
{"SMILES": "CC(C)C[C@@H]1NC(=O)[C@H](C(C)C)NC(=O)CNC(=O)[C@H](CC(N)=O)NC(=O)[C@@H]2CCCN2C(=O)[C@H](Cc2ccc(O)cc2)NC(=O)[C@H](CCCNC(=N)N)NC(=O)[C@H](Cc2ccccc2)NC(=O)[C@@H](NC(=O)[C@H](CCCCN)NC(=O)[C@H](C)NC(=O)[C@H](CO)NC(=O)[C@H](C)NC(=O)[C@@H](N)Cc2ccc(O)cc2)CSSC[C@@H](C(=O)N[C@H](C(N)=O)[C@@H](C)O)NC(=O)[C@H](C)NC1=O", "target or system": "Alpha-2-HS-glycoprotein, asialo (AHSG, Bos taurus, UniProt P12763)", "assay": "isothermal titration calorimetry", "conditions": "concentration not given, pH 7.0, 25 °C, together with: asialofetuin", "endpoint": "binding stoichiometry", "value": 0.146}
{"SMILES": "O=C1OC(c2ccccc2)=N/C1=C\\c1ccc(O)cc1", "target or system": "Alpha-glucosidase MAL12 (MAL12, Saccharomyces cerevisiae S288c, UniProt P53341)", "assay": "inhibitor, Lineweaver-Burk", "conditions": "1600 ppm, together with: pNPG substrate", "endpoint": "Vmax", "value": "1.76 mM/min"}
{"SMILES": "C[C@]12CCC(=O)C=C1CC[C@@H]1[C@@H]2[C@@H](O)C[C@@]2(C)[C@H]1CC[C@]2(O)C(=O)CO", "target or system": "Nuclear receptor subfamily 2 group C member 2 ligand-binding domain", "assay": "SPR imaging", "conditions": "600 nM", "endpoint": "koff", "value": "6.58e-05 s⁻¹"}
{"SMILES": "Nc1ncnc2c1ncn2[C@@H]1O[C@H](COP(=O)(O)OP(=O)(O)OP(=O)(O)O)[C@@H](O)[C@H]1O", "target or system": "ATP-sensitive inward rectifier potassium channel 1 (Rattus norvegicus, UniProt P35560)", "assay": "inside-out patch clamp", "test system": "renal principal cells, rat", "conditions": "0.4 mM", "endpoint": "short closed time", "value": "0.9 ms"}
{"note": "Some of these lines once more:"}
{"SMILES": "COc1cccc2c1C(=O)c1c(O)c3c(c(O)c1C2=O)C[C@@](O)(C(=O)CO)C[C@@H]3O[C@H]1C[C@H](N)[C@H](O)[C@H](C)O1", "target or system": "COS-7", "conditions": "100 µM, 24 h, 0.1% DMSO, unit not given", "scale": "baseline: control", "endpoint": "necrosis", "value": "9.15 ± 0.83"}
{"SMILES": "Cn1cc(-c2cnc3ccc(NC(=O)Nc4ccc(F)c(Br)c4)cc3n2)cn1", "target or system": "Inhibitor of nuclear factor kappa-B kinase subunit beta (IKBKB, Homo sapiens, UniProt O14920)", "assay": "kinase binding, KiNativ profiling, refers to: Lys1 peptide", "test system": "PANC-1 lysate", "conditions": "10 µM", "endpoint": "inhibition", "value": "5.7%"}
{"SMILES": "Cc1ccnc(OC[C@H]2CN(CC(=O)N3CCc4ccccc43)CCO2)c1", "target or system": "5-hydroxytryptamine receptor 4 (HTR4, Homo sapiens, UniProt Q13639)", "assay": "radioligand binding", "conditions": "concentration not given", "endpoint": "inhibition", "value": "-0.2%"}
